Published values pooled from the literature.
Each numbered part is a random draw from the data of one study; scales do not carry over between parts. Changes are numbered by the printed parent chain.

Set 1
Target: CCNE2, cyclin fold, Cln2 fusion (human)
Method: yeast growth competition, sequencing
Medium: yeast
Setting: weak parent motif
Relative to: not given
Direction: higher = stronger binding
Starting sequence: PKN2 docking peptide (human); VSAVQKLDFSDTM; partner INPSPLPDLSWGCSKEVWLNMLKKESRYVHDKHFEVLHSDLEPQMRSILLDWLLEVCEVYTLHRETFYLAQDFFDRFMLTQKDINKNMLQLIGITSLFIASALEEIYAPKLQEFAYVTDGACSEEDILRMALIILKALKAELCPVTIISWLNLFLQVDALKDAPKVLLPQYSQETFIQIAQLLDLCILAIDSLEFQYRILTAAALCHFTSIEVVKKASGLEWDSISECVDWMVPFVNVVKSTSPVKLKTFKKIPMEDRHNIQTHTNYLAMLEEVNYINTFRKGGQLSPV
| Change | normalised enrichment score |
| --- | --- |
| A3R | 0.142 |
| K6P | -0.453 |
| F9C | -0.408 |
| A3W | 0.55 |
| S10W | 0.103 |
| L7D | -0.692 |
| F9Y | -0.0077 |
| S2Y | 0.247 |
| D8V | 0.506 |
| T12K | -0.0483 |
| D8L | 0.349 |
| S10M | 0.185 |
| S10K | 0.356 |
| M13V | 0.0978 |
| T12G | 0.568 |
| D8I | 0.924 |
| L7Q | -0.168 |
| S10E | 0.964 |

Set 2
Target: Histone acetyltransferase KAT6A, winged helix 2, GST fusion (KAT6A, Homo sapiens, UniProt Q92794, residues 85-181)
Method: protein binding microarray
Form: double-stranded DNA, one strand shown
Medium: in vitro
Tested at: not given
Setting: 8-mer, flanks averaged, mean of 2 arrays, mostly near background
Relative to: not given
Direction: higher = stronger binding
Construct (chain): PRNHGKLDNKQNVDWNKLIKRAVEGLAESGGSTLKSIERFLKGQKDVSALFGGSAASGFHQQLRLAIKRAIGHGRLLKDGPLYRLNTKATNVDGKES
| Strand | E-score |
| --- | --- |
| AGAAGGAT | -0.131 |
| GATCTGAA | -0.00679 |
| TCTGGCCA | -0.0313 |
| TTCATGAA | -0.00292 |
| CCTAGAGG | -0.127 |
| ATCATTCC | -0.00477 |
| AGCCGCTC | 0.0908 |
| GGTTTGAA | 0.0805 |
| ATTTTCCG | 0.187 |
| AAGGAACG | -0.00951 |
| TAGACCAA | -0.084 |
| CTTCCGTC | 0.00186 |
| GCACCTCC | 0.11 |
| GCCCCCAA | -0.105 |
| CGTTCGTA | 0.0683 |
| ATGTATTA | -0.142 |
| ATAATCGG | 0.0735 |
| TACATCAA | -0.0115 |

Set 3
Target: RING finger protein unkempt homolog, zinc fingers 1-6, GST-SBP tag (UNK, Homo sapiens, UniProt Q9C0B0, residues 30-357)
Method: RNA Bind-n-Seq
Form: RNA
Medium: in vitro
Tested at: not given
Setting: RNA with constant flanks, human-mouse chimeric sites, ends assumed
Relative to: input RNA pool
Direction: higher = stronger binding
Shared flanks, not repeated: GGGAGUUCUACAGUCCGACGAUC … CAACAGAGGAUUGAGCAUCA
Residues (chain): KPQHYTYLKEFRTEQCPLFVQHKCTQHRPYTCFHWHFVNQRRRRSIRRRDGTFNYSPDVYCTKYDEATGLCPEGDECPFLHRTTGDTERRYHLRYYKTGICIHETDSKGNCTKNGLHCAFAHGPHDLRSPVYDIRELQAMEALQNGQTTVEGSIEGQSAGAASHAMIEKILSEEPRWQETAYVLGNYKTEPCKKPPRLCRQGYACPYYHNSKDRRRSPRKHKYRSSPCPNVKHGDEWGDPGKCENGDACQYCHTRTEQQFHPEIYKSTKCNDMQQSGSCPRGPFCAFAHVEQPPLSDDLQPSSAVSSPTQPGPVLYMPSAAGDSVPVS
| Strand | bound/input enrichment [ratio] |
| --- | --- |
| GUAGCUGGGACUACAGAAAUGCUGGUAAUUUCAGUCACUUGCUGAUGACUUCUGAUGUCCCAGCAAAUAAUGCCACAGUUGACUGCUCUGUGAAGACUUCUGAGGACCCACGUCUAAGGU | 0.112 |
| UGUAGUUUCUUGAUUUAUCAUUUUUCUUGCUCGGGUUUUUCCUUUAGGAAAAGCCUAAAGAUUAGGUUGUAAGAAAAGAAAAUAGAAUGUUUCGAAGACCUGUGUUACAGGUAUUUCGUC | 1.14 |
| GAGCGUCUUGCCCGCACCGGGAUCAUAGUGACCACUAGUGAGGCUGUUCUGCUUCAGCUGGUGGCUGACAAAGACCACCCGAAGUUCAAGGAAAUUCAGAACCUAAUUAAGGCGAGUGCC | 0.0982 |
| AGAUAUUAAGUAUUUUGAAAAAACUCGAACAGAUUUGACAAGGGUAGCCAGCUUGGAGUCUAGCAACUUGCCAAUGUGUUUACCAAUCUGGGGGCUUGUUUUUCUUUUCUUCUUUCAAAU | 0.377 |
| UGUAACUCUUAUCUGUAAAAGGUUUCUCCCCUACUGUCAAAAAAUAUGCAUGUAUAGUAAUUAGGACUUCAUUCCUCCAUGUUUUCUUCCCUUAUCUUACUGUCAUUGUCCUUAAACCUU | 1.38 |
| AAAGUGGACUAUGGUGAGUACAUGGAUAAAAACAAUGUGAGGCGGCAAGCAACAACAAUCAUAGCUGAUAACAUUAUAUUUCUGAGUGACCAGACAAAAGAAAAGGCGUAGAAAGGAUGA | 2.07 |
| AGAUUCCCCCUCCUGAGACCUCCUCCGAAGUUGGAGUCUCUUAUAGAUGCCUCAUCCCCUGUUAGUAUUUUAGUUUGGACCACCCAGCCUUGGACAAUUCCCGCCAACCAGGCAAUUUGC | 3.01 |
| CUGUGUGUGCUGAAUAAAUGGCUUGUAAAGAAGUUUUCCAAGUUGUAAACCCAUGCUGUUAUUAUAGUUGCUGCAAAAUGUUCUUCCUGAUAUUGAUUUUAUUUGUUAACUGAAGGUCUC | 0.486 |

Set 4
Target: Phosphate system positive regulatory protein PHO4, full length, GST-tagged (PHO4, Saccharomyces cerevisiae, UniProt P07270, residues 1-312)
Method: competition protein-binding microarray
Form: double-stranded DNA, one strand shown
Medium: in vitro
Tested at: 2 µM
Setting: whole 60-bp probe, lowest competitor level
With: Cbf1 competitor, 0.05 µM
Direction: higher = stronger binding
Shared flanks, not repeated: … GTCTTGATTCGCTTGACGCTGCTG
Residues (chain): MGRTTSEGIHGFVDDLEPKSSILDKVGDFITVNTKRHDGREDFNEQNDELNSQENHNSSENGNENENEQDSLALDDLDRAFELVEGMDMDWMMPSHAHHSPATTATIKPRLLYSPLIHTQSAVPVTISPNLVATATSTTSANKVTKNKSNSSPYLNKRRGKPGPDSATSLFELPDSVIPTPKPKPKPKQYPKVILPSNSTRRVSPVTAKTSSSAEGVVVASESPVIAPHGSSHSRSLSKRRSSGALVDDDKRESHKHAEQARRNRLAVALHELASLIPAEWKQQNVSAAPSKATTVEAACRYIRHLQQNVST
| Strand | fluorescence intensity [a.u.] |
| --- | --- |
| CGTCCTAGTGATTGTCACCATACTTCCATGAGGAAG | 4610 |
| CGTCACCAGCGTCACCACGGGGACCCGCCCCGAAAT | 10400 |
| TTCTGCAGATAGTCTCTCGTGACTCGAATCTCGGAA | 4070 |
| GGCCAAGTTGGTTAAGGCGTGCGATTGTTAATCGCA | 7820 |
| GAAACAGCCGCTTGCCACGTTGCTCGATAAGTTCTT | 14600 |
| AACTGTACCGGCTGGCACGTCGTACACAGAATCAGA | 5440 |
| CCCCTCCTGCCTACACGCATGCGGCTTTGATCCTTC | 6730 |
| CTATTCTTGCTAATTGACGTGCGATGGTACCAGGAG | 6360 |
| CGGGGTTAAGTTTGTCACAGCACTTGCTTGCAGCAG | 3990 |
| GAATGAGGTTGATAACTCGTGGATTTTTTATACCTG | 7800 |

Set 5
Target: Interferon regulatory factor 5, full length, phosphomimetic (IRF5, Homo sapiens, UniProt Q13568-2, residues 1-514, S451D/S453D/S456D/S462D)
Method: protein-binding microarray
Form: double-stranded DNA, one strand shown
Medium: in vitro
Tested at: 940 nM top
Setting: 60-bp whole probe
With: salmon DNA 0.4 mg/ml
Relative to: random background probes
Direction: higher = stronger binding
Shared flanks, not repeated: GCCTAGCAC … GTCTTGATTCGCTTGACGCTGCTG
| Strand | fitted relative affinity [z-score] |
| --- | --- |
| TCATTAATGCTTCTGGAACTGTGCTAG | 0.227 |
| TCACTTTTCTTTACTGAACTGTGCTAG | 1.39 |
| TTAGGTTTCGGTTTCCGTTAGTGCTAG | 13.2 |
| TTAGGTTCCCTTTTCCTTTGGTGCTAG | 0.808 |
| TTAGGTTTCGACACTGGGGTAGTGCTA | 8.91 |
| TATCATTTAATTATATGGCTGTGCTAG | 1.13 |
| GAAGGTATCGGTCTCGGGACGTGCTAG | 6.55 |
| GACGATTTCATTCTCGAGACGTGCTAG | 1.92 |
| TTAGGTAGCGACACTGGGTTAGTGCTA | -0.214 |
| TCAATAATTTTTTTCTAACTGTGCTAG | 0.639 |
| TCAAGTTCATGTTTTGGACTGTGCTAG | -0.214 |
| GACGGTCTCCGTCTCCTGACGTGCTAG | -0.225 |
| TTAGGATTGGACTATCGGTTAGTGCTA | -0.0393 |
| TGATGACTGGAGTCTGGACTAGTGCTA | -0.663 |
| GACAGTATCGACTTTCGGGACGTGCTA | 5 |
| GGCTTTTTTTTTTTTTTTTTGTGCTAG | 0.703 |
| ATAGATATCAGTATCGATTAGTGCTAG | 5.02 |
| TAAGGACTGGACTATCGGTTAGTGCTA | -0.168 |
| GAGGGTTTCGGGACTGGGGACGTGCTA | 4.91 |
| TTATATCTCAGTATCGATTAGTGCTAG | 5.88 |
| GTTTGGGTCTTGTCTGGAGTCGTGCTA | -0.105 |
| CCCAGACTTGATTTTGGTCTGTGCTAG | -0.204 |
| GACGGACTGGGGTTCGGGACGTGCTAG | -0.41 |
| GTCATTCTCAACCCTGGTGCTGTGCTA | 1.21 |
| TTAGGACTGGGCACTGGGTTAGTGCTA | -0.314 |

Set 6
Target: Sal-like protein 4, full length isoform A (SALL4, Homo sapiens, UniProt Q9UJQ4, residues 1-1053)
UniProt Q9UJQ4, sequence (whole entry, looked up): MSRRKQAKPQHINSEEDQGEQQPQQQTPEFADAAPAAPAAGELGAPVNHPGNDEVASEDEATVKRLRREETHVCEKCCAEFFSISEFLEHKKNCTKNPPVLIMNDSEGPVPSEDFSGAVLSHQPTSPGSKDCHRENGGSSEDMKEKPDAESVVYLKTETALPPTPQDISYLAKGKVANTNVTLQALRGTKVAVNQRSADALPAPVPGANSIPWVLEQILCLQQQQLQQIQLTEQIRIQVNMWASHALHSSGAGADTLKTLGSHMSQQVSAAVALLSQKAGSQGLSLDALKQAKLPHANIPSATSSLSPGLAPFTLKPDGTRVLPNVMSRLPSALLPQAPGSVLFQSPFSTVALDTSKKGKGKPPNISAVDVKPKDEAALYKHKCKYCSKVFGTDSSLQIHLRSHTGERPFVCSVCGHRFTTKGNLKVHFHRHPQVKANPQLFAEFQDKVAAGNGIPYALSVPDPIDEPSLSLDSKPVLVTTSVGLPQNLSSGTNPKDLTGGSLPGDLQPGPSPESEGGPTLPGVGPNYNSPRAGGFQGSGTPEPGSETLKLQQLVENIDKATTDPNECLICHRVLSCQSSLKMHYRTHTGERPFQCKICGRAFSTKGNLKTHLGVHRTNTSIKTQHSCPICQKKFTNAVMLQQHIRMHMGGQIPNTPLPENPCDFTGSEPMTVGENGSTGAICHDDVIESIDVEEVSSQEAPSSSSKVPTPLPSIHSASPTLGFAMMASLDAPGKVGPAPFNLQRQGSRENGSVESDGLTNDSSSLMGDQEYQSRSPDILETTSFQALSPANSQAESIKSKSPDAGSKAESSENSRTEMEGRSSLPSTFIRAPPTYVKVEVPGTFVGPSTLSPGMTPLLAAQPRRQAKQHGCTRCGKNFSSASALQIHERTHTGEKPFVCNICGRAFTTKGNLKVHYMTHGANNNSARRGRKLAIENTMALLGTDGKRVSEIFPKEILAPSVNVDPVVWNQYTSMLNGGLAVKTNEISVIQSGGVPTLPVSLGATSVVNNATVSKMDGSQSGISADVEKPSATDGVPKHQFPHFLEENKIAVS
Method: universal PBM
Form: double-stranded DNA, one strand shown
Medium: in vitro
Tested at: 600 nM
Setting: 8-mer, flanks averaged, mean of replicates
Direction: higher = stronger binding
| Strand | E-score |
| --- | --- |
| AACCCCGC | -0.231 |
| CAAGGCCA | -0.0584 |
| GTGCTCAA | 0.03 |
| ATTCCATC | 0.197 |
| GAAAGTCC | -0.183 |
| GGTACAGA | -0.00439 |
| CGTAGCAC | -0.0306 |
| ATGCTACC | 0.00686 |
| ACTACACG | 0.0188 |
| ATATGCTA | 0.274 |
| ATATCTAG | 0.265 |
| AAAGCGAG | 0.107 |
| GCTGCGAA | -0.112 |
| AGGGCGCC | -0.351 |
| AGACTTGG | -0.107 |
| AGATTCTG | 0.0413 |
| ACCTTACG | 0.0671 |
| CATTATGA | 0.317 |
| CAGCACTC | -0.127 |
| CTGGACCA | -0.216 |
| CCAAAGAC | -0.0775 |
| ATCCGACA | -0.0879 |
| CCCCACCA | -0.218 |
| CTACCAGA | 0.00384 |
| ACGACGAT | 0.00745 |

Some of these lines once more (set 3):
| Strand | bound/input enrichment [ratio] |
| --- | --- |
| GUAGCUGGGACUACAGAAAUGCUGGUAAUUUCAGUCACUUGCUGAUGACUUCUGAUGUCCCAGCAAAUAAUGCCACAGUUGACUGCUCUGUGAAGACUUCUGAGGACCCACGUCUAAGGU | 0.112 |
| UGUAGUUUCUUGAUUUAUCAUUUUUCUUGCUCGGGUUUUUCCUUUAGGAAAAGCCUAAAGAUUAGGUUGUAAGAAAAGAAAAUAGAAUGUUUCGAAGACCUGUGUUACAGGUAUUUCGUC | 1.14 |
| GAGCGUCUUGCCCGCACCGGGAUCAUAGUGACCACUAGUGAGGCUGUUCUGCUUCAGCUGGUGGCUGACAAAGACCACCCGAAGUUCAAGGAAAUUCAGAACCUAAUUAAGGCGAGUGCC | 0.0982 |
| AGAUAUUAAGUAUUUUGAAAAAACUCGAACAGAUUUGACAAGGGUAGCCAGCUUGGAGUCUAGCAACUUGCCAAUGUGUUUACCAAUCUGGGGGCUUGUUUUUCUUUUCUUCUUUCAAAU | 0.377 |
| UGUAACUCUUAUCUGUAAAAGGUUUCUCCCCUACUGUCAAAAAAUAUGCAUGUAUAGUAAUUAGGACUUCAUUCCUCCAUGUUUUCUUCCCUUAUCUUACUGUCAUUGUCCUUAAACCUU | 1.38 |
| AAAGUGGACUAUGGUGAGUACAUGGAUAAAAACAAUGUGAGGCGGCAAGCAACAACAAUCAUAGCUGAUAACAUUAUAUUUCUGAGUGACCAGACAAAAGAAAAGGCGUAGAAAGGAUGA | 2.07 |
| AGAUUCCCCCUCCUGAGACCUCCUCCGAAGUUGGAGUCUCUUAUAGAUGCCUCAUCCCCUGUUAGUAUUUUAGUUUGGACCACCCAGCCUUGGACAAUUCCCGCCAACCAGGCAAUUUGC | 3.01 |
| CUGUGUGUGCUGAAUAAAUGGCUUGUAAAGAAGUUUUCCAAGUUGUAAACCCAUGCUGUUAUUAUAGUUGCUGCAAAAUGUUCUUCCUGAUAUUGAUUUUAUUUGUUAACUGAAGGUCUC | 0.486 |
